# Measurements pooled from the literature.
# Chains of the proteins cited; added tags and fusions are not shown. Residues count along the entry.
# UniProt P21836, whole entry, looked up: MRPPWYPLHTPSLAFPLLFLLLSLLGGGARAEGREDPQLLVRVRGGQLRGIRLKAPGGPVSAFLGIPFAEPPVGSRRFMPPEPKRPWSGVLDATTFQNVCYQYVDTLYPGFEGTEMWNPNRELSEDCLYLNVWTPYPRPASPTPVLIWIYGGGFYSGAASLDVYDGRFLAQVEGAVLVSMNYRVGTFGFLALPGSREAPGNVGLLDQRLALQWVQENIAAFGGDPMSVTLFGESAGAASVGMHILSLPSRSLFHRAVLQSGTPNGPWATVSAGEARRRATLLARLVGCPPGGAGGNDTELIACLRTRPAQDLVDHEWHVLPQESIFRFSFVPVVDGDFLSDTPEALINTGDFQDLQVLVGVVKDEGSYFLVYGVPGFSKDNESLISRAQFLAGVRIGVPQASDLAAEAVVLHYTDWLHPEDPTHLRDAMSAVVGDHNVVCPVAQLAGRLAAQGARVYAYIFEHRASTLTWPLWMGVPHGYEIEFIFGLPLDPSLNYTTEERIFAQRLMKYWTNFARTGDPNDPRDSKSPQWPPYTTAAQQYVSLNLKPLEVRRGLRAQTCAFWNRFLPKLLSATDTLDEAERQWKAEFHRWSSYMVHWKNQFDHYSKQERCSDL
# UniProt P22303, 32-614 limits assumed: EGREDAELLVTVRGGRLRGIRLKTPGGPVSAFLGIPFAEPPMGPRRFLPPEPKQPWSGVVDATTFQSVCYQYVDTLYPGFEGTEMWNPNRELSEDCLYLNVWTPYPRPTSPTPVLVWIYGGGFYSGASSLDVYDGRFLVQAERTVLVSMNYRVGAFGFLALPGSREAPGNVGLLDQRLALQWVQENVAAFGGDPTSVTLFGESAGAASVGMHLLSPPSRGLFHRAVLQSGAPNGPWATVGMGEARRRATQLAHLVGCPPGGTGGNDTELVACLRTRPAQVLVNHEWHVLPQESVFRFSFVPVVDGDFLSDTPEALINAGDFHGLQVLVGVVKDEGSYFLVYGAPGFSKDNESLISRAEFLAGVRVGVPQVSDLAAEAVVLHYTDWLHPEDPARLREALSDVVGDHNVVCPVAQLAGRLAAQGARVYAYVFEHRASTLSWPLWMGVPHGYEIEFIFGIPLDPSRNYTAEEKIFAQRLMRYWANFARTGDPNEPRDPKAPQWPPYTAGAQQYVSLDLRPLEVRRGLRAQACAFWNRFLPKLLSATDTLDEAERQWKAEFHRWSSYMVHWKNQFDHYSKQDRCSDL
# UniProt P02768, 25-609 limits assumed: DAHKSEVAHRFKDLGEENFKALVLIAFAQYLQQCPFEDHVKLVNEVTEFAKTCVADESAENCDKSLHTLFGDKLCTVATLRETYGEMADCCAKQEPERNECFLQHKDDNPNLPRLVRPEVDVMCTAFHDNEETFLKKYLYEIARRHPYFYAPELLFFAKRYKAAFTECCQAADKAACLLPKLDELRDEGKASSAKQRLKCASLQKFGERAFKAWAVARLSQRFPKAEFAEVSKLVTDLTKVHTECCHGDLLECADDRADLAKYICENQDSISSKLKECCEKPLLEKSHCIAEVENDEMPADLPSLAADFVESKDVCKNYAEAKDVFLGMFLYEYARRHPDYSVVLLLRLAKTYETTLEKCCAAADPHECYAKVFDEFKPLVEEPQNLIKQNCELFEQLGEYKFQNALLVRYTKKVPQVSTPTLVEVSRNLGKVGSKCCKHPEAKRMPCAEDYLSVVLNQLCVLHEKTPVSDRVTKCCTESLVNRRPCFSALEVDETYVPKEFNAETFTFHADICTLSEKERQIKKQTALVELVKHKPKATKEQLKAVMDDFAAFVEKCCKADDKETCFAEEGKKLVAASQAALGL
# UniProt Q03311, whole entry, looked up: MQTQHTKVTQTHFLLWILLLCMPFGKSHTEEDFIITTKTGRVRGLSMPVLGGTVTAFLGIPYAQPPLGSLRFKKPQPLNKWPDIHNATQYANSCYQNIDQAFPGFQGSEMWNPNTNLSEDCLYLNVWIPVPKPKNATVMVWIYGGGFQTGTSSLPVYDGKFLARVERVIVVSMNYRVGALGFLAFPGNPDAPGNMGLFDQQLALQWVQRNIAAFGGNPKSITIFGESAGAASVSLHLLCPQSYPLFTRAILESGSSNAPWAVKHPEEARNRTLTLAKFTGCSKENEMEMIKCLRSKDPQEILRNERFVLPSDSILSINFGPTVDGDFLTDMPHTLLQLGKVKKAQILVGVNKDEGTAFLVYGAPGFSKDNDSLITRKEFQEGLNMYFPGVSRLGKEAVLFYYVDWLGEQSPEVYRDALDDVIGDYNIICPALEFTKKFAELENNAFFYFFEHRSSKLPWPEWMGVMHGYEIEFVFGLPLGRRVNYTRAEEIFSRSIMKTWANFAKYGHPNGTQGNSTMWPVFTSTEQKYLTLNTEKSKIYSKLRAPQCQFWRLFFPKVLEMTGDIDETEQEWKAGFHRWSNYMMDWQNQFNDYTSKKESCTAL
# UniProt Q9GZZ6, 25-450 limits assumed: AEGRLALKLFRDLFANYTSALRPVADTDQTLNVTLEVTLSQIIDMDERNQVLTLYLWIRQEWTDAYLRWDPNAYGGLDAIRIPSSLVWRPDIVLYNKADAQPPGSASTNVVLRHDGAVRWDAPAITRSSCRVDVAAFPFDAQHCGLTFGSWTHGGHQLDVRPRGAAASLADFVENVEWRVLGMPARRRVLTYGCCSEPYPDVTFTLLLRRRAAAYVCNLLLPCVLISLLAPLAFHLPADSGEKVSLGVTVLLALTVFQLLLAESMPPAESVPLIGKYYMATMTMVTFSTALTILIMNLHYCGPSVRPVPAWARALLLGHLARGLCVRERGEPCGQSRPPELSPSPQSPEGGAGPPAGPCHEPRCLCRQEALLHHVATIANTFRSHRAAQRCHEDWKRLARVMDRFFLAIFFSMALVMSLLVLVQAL
# UniProt Q9UGM1, 26-479 limits assumed: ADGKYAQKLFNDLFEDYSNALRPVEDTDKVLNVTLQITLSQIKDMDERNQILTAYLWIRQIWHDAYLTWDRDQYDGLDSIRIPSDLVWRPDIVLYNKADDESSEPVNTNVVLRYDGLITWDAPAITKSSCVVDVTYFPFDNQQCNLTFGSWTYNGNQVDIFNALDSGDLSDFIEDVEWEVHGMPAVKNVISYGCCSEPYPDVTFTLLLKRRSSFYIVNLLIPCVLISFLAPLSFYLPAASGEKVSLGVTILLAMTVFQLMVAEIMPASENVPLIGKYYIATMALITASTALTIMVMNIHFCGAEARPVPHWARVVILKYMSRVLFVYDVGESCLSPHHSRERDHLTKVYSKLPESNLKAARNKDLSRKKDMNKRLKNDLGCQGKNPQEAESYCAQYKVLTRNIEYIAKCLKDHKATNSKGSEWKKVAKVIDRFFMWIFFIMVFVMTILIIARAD
# UniProt P41143, whole entry: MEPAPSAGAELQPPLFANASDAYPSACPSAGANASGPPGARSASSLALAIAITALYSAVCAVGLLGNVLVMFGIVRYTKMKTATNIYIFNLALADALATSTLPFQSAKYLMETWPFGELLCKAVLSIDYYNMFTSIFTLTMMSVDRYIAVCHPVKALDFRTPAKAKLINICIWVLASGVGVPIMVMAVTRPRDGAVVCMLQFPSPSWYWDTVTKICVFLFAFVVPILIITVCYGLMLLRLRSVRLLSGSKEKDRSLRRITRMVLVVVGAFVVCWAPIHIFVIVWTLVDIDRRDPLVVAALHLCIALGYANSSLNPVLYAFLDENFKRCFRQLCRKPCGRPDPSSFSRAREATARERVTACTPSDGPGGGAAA
# UniProt P35372, whole entry: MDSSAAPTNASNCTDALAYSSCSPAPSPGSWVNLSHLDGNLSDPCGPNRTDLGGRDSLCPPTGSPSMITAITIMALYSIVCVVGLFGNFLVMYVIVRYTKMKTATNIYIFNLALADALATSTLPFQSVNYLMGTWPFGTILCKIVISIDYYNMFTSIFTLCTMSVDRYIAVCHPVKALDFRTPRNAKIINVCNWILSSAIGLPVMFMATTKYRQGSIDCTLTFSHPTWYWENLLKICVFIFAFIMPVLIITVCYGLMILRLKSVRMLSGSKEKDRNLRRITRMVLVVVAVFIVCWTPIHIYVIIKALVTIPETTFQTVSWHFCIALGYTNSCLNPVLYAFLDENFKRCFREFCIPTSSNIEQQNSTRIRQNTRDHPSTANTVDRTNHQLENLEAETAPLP
# UniProt P41145, whole entry: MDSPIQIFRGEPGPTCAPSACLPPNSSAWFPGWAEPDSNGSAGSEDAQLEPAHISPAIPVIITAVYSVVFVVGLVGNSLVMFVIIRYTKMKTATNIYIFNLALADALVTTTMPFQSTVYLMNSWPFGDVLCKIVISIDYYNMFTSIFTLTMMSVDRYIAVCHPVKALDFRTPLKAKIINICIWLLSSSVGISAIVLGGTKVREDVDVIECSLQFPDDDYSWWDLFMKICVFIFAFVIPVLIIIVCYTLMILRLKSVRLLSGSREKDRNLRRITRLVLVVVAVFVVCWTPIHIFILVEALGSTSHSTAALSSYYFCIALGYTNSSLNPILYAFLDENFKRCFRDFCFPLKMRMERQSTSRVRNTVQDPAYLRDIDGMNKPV
# UniProt P04775, whole entry: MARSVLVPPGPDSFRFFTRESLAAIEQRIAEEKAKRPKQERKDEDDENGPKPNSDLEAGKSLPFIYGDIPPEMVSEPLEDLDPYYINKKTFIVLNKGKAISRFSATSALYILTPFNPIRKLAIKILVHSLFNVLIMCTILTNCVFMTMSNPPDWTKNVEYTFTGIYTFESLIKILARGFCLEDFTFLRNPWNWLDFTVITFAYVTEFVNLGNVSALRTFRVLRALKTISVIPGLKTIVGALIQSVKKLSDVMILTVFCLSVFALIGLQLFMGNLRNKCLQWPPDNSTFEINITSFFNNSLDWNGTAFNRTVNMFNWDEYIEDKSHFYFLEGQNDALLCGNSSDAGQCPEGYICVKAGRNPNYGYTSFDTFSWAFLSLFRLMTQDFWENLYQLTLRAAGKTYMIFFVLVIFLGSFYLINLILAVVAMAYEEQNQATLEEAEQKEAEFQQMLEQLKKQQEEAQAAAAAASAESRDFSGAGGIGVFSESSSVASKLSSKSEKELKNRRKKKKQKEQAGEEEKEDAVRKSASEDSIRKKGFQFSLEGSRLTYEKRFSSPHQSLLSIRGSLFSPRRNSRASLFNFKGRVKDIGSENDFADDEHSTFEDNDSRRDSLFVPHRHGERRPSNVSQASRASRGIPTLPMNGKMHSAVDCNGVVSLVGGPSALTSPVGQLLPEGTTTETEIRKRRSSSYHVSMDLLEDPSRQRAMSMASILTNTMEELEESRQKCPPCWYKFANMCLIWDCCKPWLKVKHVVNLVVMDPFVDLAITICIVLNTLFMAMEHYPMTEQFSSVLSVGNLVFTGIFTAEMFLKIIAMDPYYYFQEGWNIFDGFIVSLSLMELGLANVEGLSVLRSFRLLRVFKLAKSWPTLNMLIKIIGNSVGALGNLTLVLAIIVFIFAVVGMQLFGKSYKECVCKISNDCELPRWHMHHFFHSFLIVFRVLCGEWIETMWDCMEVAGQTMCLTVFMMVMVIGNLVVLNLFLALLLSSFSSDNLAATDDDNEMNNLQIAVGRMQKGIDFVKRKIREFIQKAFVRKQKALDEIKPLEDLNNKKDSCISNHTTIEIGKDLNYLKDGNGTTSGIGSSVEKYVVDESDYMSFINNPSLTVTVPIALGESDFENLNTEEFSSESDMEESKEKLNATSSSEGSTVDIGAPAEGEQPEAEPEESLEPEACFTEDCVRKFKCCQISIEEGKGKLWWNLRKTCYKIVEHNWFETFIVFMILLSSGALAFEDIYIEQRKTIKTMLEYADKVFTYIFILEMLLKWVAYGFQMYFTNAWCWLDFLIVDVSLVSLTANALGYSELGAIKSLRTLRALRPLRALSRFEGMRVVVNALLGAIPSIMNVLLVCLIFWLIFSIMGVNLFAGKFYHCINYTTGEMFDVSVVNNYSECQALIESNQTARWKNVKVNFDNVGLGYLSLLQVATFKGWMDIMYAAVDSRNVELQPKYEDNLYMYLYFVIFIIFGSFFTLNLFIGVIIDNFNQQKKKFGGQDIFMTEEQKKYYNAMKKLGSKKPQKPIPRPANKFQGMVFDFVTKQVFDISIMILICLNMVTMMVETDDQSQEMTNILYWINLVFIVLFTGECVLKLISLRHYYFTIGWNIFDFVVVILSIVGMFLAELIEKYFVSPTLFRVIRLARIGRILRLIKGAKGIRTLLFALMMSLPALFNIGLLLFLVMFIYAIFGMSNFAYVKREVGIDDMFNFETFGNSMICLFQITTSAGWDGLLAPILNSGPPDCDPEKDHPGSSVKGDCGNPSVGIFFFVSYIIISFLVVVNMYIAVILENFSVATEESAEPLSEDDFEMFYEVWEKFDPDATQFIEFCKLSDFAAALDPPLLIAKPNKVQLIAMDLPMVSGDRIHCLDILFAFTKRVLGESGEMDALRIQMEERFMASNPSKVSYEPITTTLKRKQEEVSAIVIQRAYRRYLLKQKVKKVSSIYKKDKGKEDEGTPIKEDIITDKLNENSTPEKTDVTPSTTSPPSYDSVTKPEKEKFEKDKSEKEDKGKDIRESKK
# Numbers after ± are the reported error.
# Ricin A chain: Ricin, A chain (Ricinus communis, UniProt P02879)
Molecule,target or system,test,system,conditions,how to read,quantity,value
NC12CC3CC(CC(C3)C1)C2,Influenza A virus,viral replication,"MDCK, A/Swine/Illinois/21-1230/2009",,,EC50,> 100 µM
CCOP(=S)(OCC)Oc1nc(Cl)c(Cl)cc1Cl,"Acetylcholinesterase (Ache, Mus musculus, UniProt P21836)",enzyme activity,ES1-/- mice,"transdermal, 100 mg/kg, toxicant challenge",reference: baseline,time to AChE recovery,≤ 9 days
CC(C)OP(=S)(OC(C)C)SCCNS(=O)(=O)c1ccccc1,"Acetylcholinesterase (ACHE, Homo sapiens, UniProt P22303)","enzyme activity, inhibitor, colorimetric",,no microsomes,,IC50,inactive
COc1c(C)c2c(c(O)c1C/C=C(\C)CCC(=O)O)C(=O)OC2,"Inosine-5'-monophosphate dehydrogenase (guaB, Bacillus anthracis, UniProt A0A6L8P2U9)",inhibitor,,"together with: NAD+ varied, 750 µM IMP",,Kii,3.9 ± 0.2 µM
Nc1nc2nc(C(=O)NCc3ccc(F)cc3)cnc2c(=O)[nH]1,Ricin A chain,differential scanning fluorimetry,,"500 µM, pH 7.5, 2 µM protein",,ΔTm,2 °C
[3H]diisopropyl fluorophosphate,"Albumin (ALB, Homo sapiens, UniProt P02768)",,,"19 µM, 1 h",reference: commercial over native human albumin,binding stoichiometry increase,~5 fold
Cc1cc(=O)oc2cc(NC(=O)CNC(=O)CNC(=O)[C@H](CCCNC(=N)N)NC(=O)[C@H](CC(C)C)NC(=O)[C@H](CCCNC(=N)N)NC(=O)OCc3ccccc3)ccc12,"Replicase polyprotein 1a, papain-like protease (Severe acute respiratory syndrome-related coronavirus, UniProt P0C6U8)","protease activity, substrate",,pH 7.5,,Km,75.9 µM
Nc1nc2nc(C(=O)NCc3ccco3)cnc2c(=O)[nH]1,Ricin A chain,differential scanning fluorimetry,,"500 µM, pH 7.5, 2 µM protein",,ΔTm,2 °C
CNC(=O)Oc1cccc2c1OC(C)(C)C2,"Cholinesterase (Bche, Mus musculus, UniProt Q03311)",,"ES1-/- mice, plasma","subcutaneous, 1.0 mg/kg, 0.5 h, toxicant challenge",,inhibition,28.9 ± 2.1%
N-carbamoyl-aspartate,"Dihydroorotase (Bacillus anthracis, UniProt Q81WF0, N93A)",substrate,,N93A mutant,,Km,1180 ± 251 µM
C[C@@H]1NC(=O)[C@H](CCCNC(=N)N)NC(=O)[C@H](CCCNC(=N)N)NC(=O)[C@H](CCCNC(=N)N)NC(=O)[C@H](CO)NC(=O)[C@@H]2CSSC[C@H](NC(=O)CN)C(=O)N[C@@H](CSSC[C@@H](C(N)=O)NC(=O)[C@H](CO)NC(=O)[C@H](CCCNC(=N)N)NC1=O)C(=O)N[C@@H](CO)C(=O)N[C@@H](Cc1c[nH]cn1)C(=O)N1CCC[C@H]1C(=O)N[C@@H](C)C(=O)N2,"Neuronal acetylcholine receptor; alpha9/alpha10 (Homo sapiens, UniProt Q9GZZ6+Q9UGM1)","ion current, antagonist",Xenopus oocytes,"10 µM, 5 min, together with: acetylcholine",reference: control,remaining response,1 ± 0.9%
Cc1cc2c(-c3ccco3)cnc(N[C@@H]3CCN(C)C[C@H]3C(=O)NC3CCCCC3)c2[nH]c1=O,"Delta-type opioid receptor (OPRD1, Homo sapiens, UniProt P41143)","binding, radioligand binding",,10 µM,,inhibition,40.9%
CN(C)[C@]1(c2ccccc2)CC[C@]2(CC1)OCCc1c3cc(F)ccc3[nH]c12,"Mu-type opioid receptor (OPRM1, Homo sapiens, UniProt P35372)","cAMP, agonist",,human receptor,,Emax,100.3 ± 0.3%
CO[C@]12CC[C@@]3(C[C@@H]1[C@](C)(O)c1cccc(Cl)c1)[C@H]1Cc4ccc(O)c5c4[C@@]3(CCN1CC1CC1)[C@H]2O5,"Kappa-type opioid receptor (OPRK1, Homo sapiens, UniProt P41145)","G-protein activation, agonist",,10 µM,reference: U-69593,stimulation,26 ± 2%
C[C@@H]1NC(=O)[C@H](CO)NC(=O)[C@H](CO)NC(=O)[C@@H]2CSSC[C@@H](C(N)=O)NC(=O)[C@@H]3CSSC[C@H](N)C(=O)N[C@@H](CSSC[C@H](NC(=O)[C@H](Cc4c[nH]c5ccccc45)NC1=O)C(=O)N[C@@H](CCCNC(=N)N)C(=O)N[C@@H](CC(=O)O)C(=O)N[C@@H](Cc1c[nH]cn1)C(=O)N[C@@H](CO)C(=O)N[C@@H](CCCNC(=N)N)C(=O)N3)C(=O)N[C@@H](CC(N)=O)C(=O)N2,"Sodium channel protein type 2 subunit alpha (Scn2a, Rattus norvegicus, UniProt P04775)",channel-peptide complex formation,,1 µM,,kobs,0.17 ± 0.006 min⁻¹

# For quick reference, copied from above:
Molecule,target or system,test,system,conditions,how to read,quantity,value
CO[C@]12CC[C@@]3(C[C@@H]1[C@](C)(O)c1cccc(Cl)c1)[C@H]1Cc4ccc(O)c5c4[C@@]3(CCN1CC1CC1)[C@H]2O5,"Kappa-type opioid receptor (OPRK1, Homo sapiens, UniProt P41145)","G-protein activation, agonist",,10 µM,reference: U-69593,stimulation,26 ± 2%
C[C@@H]1NC(=O)[C@H](CO)NC(=O)[C@H](CO)NC(=O)[C@@H]2CSSC[C@@H](C(N)=O)NC(=O)[C@@H]3CSSC[C@H](N)C(=O)N[C@@H](CSSC[C@H](NC(=O)[C@H](Cc4c[nH]c5ccccc45)NC1=O)C(=O)N[C@@H](CCCNC(=N)N)C(=O)N[C@@H](CC(=O)O)C(=O)N[C@@H](Cc1c[nH]cn1)C(=O)N[C@@H](CO)C(=O)N[C@@H](CCCNC(=N)N)C(=O)N3)C(=O)N[C@@H](CC(N)=O)C(=O)N2,"Sodium channel protein type 2 subunit alpha (Scn2a, Rattus norvegicus, UniProt P04775)",channel-peptide complex formation,,1 µM,,kobs,0.17 ± 0.006 min⁻¹
